Published values gathered from unrelated publications.
Compare with care: the assays were run in different laboratories. ± marks the error that the study gave.
PHO4: PHO4 1-312 (Saccharomyces cerevisiae, UniProt P07270)
UniProt P07270, sequence (whole entry, looked up): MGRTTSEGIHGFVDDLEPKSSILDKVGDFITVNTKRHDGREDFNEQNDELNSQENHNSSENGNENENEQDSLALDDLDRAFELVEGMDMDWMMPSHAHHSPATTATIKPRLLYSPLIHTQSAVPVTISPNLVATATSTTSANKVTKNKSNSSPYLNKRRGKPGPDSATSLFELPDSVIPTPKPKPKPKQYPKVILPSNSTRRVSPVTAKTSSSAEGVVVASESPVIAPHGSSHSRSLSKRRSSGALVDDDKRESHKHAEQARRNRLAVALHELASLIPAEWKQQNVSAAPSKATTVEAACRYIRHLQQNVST
SPT15 full length assumed: SPT15 full length assumed (Saccharomyces cerevisiae, UniProt P13393)
UniProt P13393, sequence (whole entry, looked up): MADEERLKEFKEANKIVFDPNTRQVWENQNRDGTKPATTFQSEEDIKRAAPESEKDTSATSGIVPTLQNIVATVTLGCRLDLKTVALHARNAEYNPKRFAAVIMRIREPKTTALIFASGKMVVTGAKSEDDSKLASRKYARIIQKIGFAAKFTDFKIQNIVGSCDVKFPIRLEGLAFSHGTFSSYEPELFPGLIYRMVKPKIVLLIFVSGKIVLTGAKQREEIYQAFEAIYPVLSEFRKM
MECP2: MECP2 1-486 (Homo sapiens, UniProt P51608)
PHO4 full length assumed: PHO4 full length assumed (Saccharomyces cerevisiae, UniProt P07270)
CBF1: CBF1 1-351 (Saccharomyces cerevisiae, UniProt P17106)
UniProt P17106, sequence (whole entry, looked up): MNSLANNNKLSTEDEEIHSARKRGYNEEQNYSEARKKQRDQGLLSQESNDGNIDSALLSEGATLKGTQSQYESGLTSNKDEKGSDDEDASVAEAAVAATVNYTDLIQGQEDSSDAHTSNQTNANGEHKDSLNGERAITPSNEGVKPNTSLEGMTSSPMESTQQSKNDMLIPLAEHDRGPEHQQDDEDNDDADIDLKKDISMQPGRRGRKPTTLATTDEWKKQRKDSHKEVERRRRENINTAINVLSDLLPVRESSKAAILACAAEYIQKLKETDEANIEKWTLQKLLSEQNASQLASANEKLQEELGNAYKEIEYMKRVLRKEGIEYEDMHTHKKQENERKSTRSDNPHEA
U2AF2: U2AF2 148-342 (Homo sapiens, UniProt P26368)
UniProt P26368, sequence (whole entry, looked up): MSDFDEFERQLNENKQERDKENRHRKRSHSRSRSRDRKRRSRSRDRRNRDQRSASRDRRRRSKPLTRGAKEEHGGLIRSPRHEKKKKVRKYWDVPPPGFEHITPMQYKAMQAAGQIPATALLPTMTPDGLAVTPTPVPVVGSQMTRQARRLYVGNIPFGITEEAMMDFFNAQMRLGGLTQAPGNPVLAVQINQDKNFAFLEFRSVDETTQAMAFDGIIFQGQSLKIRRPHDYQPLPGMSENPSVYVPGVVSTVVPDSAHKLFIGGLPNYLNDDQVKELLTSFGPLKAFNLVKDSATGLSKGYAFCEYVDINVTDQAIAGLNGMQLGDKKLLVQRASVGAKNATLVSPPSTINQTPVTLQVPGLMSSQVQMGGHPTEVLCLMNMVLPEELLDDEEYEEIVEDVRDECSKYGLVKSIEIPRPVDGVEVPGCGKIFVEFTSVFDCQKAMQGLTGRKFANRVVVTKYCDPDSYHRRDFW
TDG: TDG 1-410 (Homo sapiens, UniProt Q13569)
UniProt Q13569, sequence (whole entry, looked up): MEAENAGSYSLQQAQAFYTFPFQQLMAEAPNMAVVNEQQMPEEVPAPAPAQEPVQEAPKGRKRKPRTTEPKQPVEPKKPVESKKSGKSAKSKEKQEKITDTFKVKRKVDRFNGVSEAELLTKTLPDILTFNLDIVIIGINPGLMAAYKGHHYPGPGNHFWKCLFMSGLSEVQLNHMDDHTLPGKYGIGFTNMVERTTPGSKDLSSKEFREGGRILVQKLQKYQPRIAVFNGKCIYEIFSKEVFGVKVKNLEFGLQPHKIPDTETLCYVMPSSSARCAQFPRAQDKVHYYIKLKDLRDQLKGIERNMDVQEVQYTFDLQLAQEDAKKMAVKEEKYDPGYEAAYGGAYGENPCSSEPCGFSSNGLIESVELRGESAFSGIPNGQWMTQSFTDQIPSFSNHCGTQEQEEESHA
CIN5 full length assumed: CIN5 full length assumed (Saccharomyces cerevisiae, UniProt P40917)
UniProt P40917, sequence (whole entry, looked up): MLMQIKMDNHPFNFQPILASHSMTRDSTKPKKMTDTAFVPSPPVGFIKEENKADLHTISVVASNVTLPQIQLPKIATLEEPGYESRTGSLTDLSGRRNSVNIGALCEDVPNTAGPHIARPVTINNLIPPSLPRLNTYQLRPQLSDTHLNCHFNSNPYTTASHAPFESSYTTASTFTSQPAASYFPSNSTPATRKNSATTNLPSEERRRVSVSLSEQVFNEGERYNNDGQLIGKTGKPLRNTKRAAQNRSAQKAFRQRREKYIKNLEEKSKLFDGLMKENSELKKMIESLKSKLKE
ulaR full length assumed: ulaR full length assumed (Escherichia coli, UniProt P0A9W0)
UniProt P0A9W0, sequence (whole entry, looked up): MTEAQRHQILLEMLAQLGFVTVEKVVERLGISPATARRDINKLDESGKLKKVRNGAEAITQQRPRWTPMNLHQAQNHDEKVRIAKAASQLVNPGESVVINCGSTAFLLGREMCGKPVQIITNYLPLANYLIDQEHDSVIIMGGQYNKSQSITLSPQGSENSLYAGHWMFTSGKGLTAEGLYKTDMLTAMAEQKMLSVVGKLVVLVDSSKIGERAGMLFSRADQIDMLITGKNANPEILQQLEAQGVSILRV
TGM2: TGM2 2-687 (Homo sapiens, UniProt P21980)
UniProt P21980, sequence (whole entry, looked up): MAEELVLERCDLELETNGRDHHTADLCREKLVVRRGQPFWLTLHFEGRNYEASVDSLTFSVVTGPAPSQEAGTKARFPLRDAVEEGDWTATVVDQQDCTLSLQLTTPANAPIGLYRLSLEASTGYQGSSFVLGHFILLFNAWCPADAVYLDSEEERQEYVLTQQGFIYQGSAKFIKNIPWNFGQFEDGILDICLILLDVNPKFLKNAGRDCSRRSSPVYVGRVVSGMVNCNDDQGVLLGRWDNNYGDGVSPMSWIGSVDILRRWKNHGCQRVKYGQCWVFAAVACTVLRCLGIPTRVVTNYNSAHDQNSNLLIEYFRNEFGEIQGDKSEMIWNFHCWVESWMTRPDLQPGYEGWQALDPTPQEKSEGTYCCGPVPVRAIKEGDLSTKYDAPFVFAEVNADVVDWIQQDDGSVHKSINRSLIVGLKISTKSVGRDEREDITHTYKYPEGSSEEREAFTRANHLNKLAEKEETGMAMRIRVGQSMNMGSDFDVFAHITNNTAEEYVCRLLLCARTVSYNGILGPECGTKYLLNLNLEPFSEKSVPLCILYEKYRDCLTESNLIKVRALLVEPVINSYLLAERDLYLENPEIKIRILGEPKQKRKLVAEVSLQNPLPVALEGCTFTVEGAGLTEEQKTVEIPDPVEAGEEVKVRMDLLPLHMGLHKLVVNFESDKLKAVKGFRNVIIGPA
pdhR full length assumed: pdhR full length assumed (Escherichia coli, UniProt P0ACL9)
UniProt P0ACL9, sequence (whole entry, looked up): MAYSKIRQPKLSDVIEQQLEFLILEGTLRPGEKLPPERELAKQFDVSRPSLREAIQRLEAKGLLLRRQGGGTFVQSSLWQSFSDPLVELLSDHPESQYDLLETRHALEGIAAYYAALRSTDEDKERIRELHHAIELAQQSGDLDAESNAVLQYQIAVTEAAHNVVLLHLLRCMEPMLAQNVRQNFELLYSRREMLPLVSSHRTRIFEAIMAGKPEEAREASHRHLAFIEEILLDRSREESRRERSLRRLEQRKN
T1: TOA1/TOA2 1-286; 1-122 (Saccharomyces cerevisiae); chain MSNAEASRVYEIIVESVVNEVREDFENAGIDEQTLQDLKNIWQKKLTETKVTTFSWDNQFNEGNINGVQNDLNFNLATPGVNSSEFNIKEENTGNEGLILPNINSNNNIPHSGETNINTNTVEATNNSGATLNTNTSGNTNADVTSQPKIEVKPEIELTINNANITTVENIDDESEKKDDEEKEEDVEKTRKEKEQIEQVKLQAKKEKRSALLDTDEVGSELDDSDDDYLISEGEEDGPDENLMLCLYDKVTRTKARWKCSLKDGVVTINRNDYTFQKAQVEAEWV; chain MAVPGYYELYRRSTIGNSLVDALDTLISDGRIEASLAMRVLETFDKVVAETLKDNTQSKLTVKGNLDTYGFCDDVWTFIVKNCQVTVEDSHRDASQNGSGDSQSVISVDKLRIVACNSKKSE
UniProt P15976, sequence (whole entry, looked up): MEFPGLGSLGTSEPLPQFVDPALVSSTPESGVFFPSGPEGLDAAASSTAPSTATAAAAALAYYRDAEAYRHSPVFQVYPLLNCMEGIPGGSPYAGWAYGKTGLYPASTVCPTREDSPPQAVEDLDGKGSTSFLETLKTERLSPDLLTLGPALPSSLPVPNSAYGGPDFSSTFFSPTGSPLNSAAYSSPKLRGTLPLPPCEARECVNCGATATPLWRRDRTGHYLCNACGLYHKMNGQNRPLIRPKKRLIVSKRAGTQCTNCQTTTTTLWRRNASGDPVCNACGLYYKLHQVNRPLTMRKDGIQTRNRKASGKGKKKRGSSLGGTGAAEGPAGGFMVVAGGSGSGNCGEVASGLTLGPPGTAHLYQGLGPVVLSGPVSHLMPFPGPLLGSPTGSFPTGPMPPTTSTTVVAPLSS
UniProt O95905, sequence (whole entry, looked up): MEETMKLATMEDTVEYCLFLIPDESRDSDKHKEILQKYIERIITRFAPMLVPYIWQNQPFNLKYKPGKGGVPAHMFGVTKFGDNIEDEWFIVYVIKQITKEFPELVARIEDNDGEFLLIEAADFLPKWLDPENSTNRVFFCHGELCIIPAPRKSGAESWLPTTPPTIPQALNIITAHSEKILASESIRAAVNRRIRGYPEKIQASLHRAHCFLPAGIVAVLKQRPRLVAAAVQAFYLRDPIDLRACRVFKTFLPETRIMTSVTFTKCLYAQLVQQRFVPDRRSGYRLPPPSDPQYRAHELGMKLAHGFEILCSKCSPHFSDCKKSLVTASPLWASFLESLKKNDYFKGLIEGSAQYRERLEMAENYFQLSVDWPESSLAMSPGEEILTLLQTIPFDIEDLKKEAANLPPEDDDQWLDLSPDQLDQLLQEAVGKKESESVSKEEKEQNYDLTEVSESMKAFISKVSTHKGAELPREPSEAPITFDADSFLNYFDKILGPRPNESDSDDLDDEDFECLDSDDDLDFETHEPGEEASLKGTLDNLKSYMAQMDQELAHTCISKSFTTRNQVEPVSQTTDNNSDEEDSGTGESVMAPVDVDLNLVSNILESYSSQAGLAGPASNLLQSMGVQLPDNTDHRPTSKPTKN
UniProt O15347, sequence (whole entry, looked up): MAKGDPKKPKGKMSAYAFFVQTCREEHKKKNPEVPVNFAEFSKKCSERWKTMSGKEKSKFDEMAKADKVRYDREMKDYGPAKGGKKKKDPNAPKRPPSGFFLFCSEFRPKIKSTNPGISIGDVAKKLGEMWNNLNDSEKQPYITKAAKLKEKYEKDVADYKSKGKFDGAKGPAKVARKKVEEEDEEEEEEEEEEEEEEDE
UniProt Q8IYX4, sequence (whole entry, looked up): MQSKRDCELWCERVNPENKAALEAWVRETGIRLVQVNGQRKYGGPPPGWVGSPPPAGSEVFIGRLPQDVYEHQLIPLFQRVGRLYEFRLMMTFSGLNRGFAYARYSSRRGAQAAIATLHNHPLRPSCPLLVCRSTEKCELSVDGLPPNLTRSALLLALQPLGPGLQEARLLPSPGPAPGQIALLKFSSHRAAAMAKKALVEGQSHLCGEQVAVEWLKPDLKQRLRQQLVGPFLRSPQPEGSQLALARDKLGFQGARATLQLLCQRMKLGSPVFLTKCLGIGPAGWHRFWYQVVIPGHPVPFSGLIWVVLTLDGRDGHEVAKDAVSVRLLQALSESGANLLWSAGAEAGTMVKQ

Substance	target or system	test	test system	setting	scale	quantity	result
CAATACACTGTTATCAAACACACGTGTCGAGCTACTCGTTCGGTTATCCGGCGGTATGAC (dsDNA)	PHO4	MITOMI	double-stranded DNA, one strand shown	not purified	–	Kd	150 ± 3 nM
TCCTGAAGGGGCGACCTAGCTTGGTCCTATCGTCGTCAAGTCAATCGGTCC (dsDNA; 5'-amino-C6 primer)	SPT15 full length assumed	array	double-stranded DNA, one strand shown	TBP alone	–	Kd	2.45 ± 0.23 nM
GCGGUGUAUAGCCUAAUCUUUACCGC (structured RNA)	MECP2	fluorescence polarization	folded RNA	Hill coefficient 0.64	–	Kd	26.8 ± 3.6 nM
CTTGAAGGGGGGCTATAAAAGGGGGTGGGGGCGCGTCAAGTCAATCGGTCC (dsDNA; 5'-amino-C6 primer)	T1, TOA1/TOA2 1-286; 1-122 (Saccharomyces cerevisiae)	array	double-stranded DNA, one strand shown	TFIIA alone	–	Kd	134 ± 67.7 nM
TTTGCGTGGGCTGTGGTGCTTT (ssDNA)	traI 381-858 (Escherichia coli, UniProt P14565)	fluorescence titration	single-stranded DNA	–	–	Kd	38.6 ± 5 nM
AGAGTGCGACACCTGATTCC / GGAAUCAGGUGUCGCACUCU (DNA:RNA)	S9.6 antibody (Mus musculus)	fluorescence anisotropy	–	Kd per binding site, no DTT	–	Kd	84 ± 6 nM
ACAGGGGTGTGGGCACAGGGGTGTGGGC (G-quadruplex DNA (Homo sapiens); intramolecular G4)	IGF2 fragment (Homo sapiens)	SPR	folded DNA	with: IGF-2 0.5-50 nM	–	Kd	0.21 nM
CGCGGACACGTGTACACGTTCACACGTTGACACGTTTACACTACCACACTACGACCTCCGGCGGTATGAC (dsDNA)	PHO4 full length assumed	MITOMI	double-stranded DNA, one strand shown	not purified	–	Kd	130 ± 10 nM
CAATACACTGTTATCAGACACACGTGTCCAGCTACTCGTTCGGTTATCCGGCGGTATGAC (dsDNA)	CBF1	MITOMI	double-stranded DNA, one strand shown	not purified	–	Kd	111 ± 5 nM
DNA 1 GCCGGGCCGGCCGGCCGGCCCCCGGGGCCCGGCGCTCAATTCAATCGGTCC / DNA 2 GGACCGATTGACTTGAGCGCCGGGCCCCGGGGGCCGGCCGGCCGGCCCGGC (dsDNA; blunt; C:T mismatch; 5'-amino-C6 primer)	SPT15 full length assumed	array	double-stranded DNA	TBP alone	–	Kd	3.51 ± 0.27 nM
GCAGUAGGGUGAGGGUGUUGGCAGGGAGCGCCCUCCCCCAUAGUGU (RNA; multiple G-quadruplex hairpins)	PARP1 216-1014 del1-215 (Homo sapiens, UniProt P09874)	fluorescence polarization	folded RNA	Hill coefficient 0.45	–	Kd	6.8 ± 1.3 nM
CUCUCUCGU (ssRNA)	U2AF2	sequencing of bound RNA	RNA	motif only	–	Kd	2080 nM
DNA 1 TGAGGATGTATATATCTGACGCGCCGGTGGAGC / DNA 2 GCTCCACCGGCGCGTACGATATATACATCCTCA (dsDNA)	TDG	EMSA	double-stranded DNA	–	–	Kd	43 nM
AUAUGAAUUU (ssRNA)	DND1 1-230 (Homo sapiens, UniProt Q8IYX4)	MST	RNA	–	–	Kd	5100 nM
CGCGGGAATTAGGTAATTAGTCAATTAGTGAATTAGTTAATTATACAATTATAGACTCCGGCGGTATGAC (dsDNA)	CIN5 full length assumed	MITOMI	double-stranded DNA, one strand shown	not purified	–	Kd	900 ± 70 nM
AUCAUGUUGCCAUUU (ssRNA)	fbf-1 162-573 (Caenorhabditis elegans, UniProt Q9N5M6)	EMSA	RNA	–	–	Kd	479 nM
CAATACACTGTTATCATACACACGTGTCGAGCTACTCGTTCGGTTATCCGGCGGTATGAC (dsDNA)	PHO4	MITOMI	double-stranded DNA, one strand shown	not purified	–	Kd	170 ± 5 nM
CGCATAATTACCCAATTACCGAATTACCTAATTACGCAATTACGGAATTACGTAACTCCGGCGGTATGAC (dsDNA)	CIN5 full length assumed	MITOMI	double-stranded DNA, one strand shown	not purified	–	Kd	120 ± 10 nM
CUUCUCCAU (ssRNA)	U2AF2	sequencing of bound RNA	RNA	motif only	–	Kd	9080 nM
CTCAGGAATTCCTATAGAGTAATGTGGAGCTCAGTTCAAGTCAATCGGTCC (dsDNA; 5'-amino-C6 primer)	SPT15 full length assumed	array	double-stranded DNA, one strand shown	TBP alone	–	Kd	1.97 ± 0.16 nM
GTTCAATTCGAATCAATATGTGATTGGTTTTGATTAATCCTGACACTATTTTTTCAGGAAG (dsDNA)	ulaR full length assumed	BLI	double-stranded DNA, one strand shown	–	–	Kd	10.7 nM
DNA TGTGTCACCACTGCTCACGTACAGAGCTG / RNA CAGCUCUGUACGUGAGCAGUGGUGACAC (DNA:RNA hybrid; 5' 1-nt overhang)	TDG	EMSA	DNA-RNA hybrid	–	–	Kd	57 nM
GGGAGCAGGAGAGAGGUCAGAUGAACGGUAAACGUGCAAGCCAGUCCUGUUCUCCUAUGCGUGCUAGUGUGA (ssRNA; 2'-fluoro pyrimidines)	TGM2	SPR	RNA	with: MgCl2 5 mM	higher = more binding	relative binding	-10.3 RU
CATTCGCAACCTATAAGTAAATCCAATGGAACTCATCATAAATGAGACTTTTACCTTATGA (dsDNA)	ulaR full length assumed	BLI	double-stranded DNA, one strand shown	–	–	Kd	356 nM

Substance	target or system	test	test system	setting	scale	quantity	result
AUACUCUGGUUUCUCUUCAGAUCGCAUAAAUCUUUCGCCUU (ssRNA)	ECD 1-644 (Homo sapiens, UniProt O95905)	FP	RNA	–	–	Kd	3400 ± 800 nM
GGGAGCAGGAGAGAGGUCAGAUGAACGAGAGAUGGUAGGCCUUUGAUGAUGCUCCUAUGCGUGCUAGUGUGA (ssRNA; 2'-fluoro pyrimidines)	TGM2	SPR	RNA	with: MgCl2 5 mM	higher = more binding	relative binding	127 RU
GAATTCCTATGAAGTAATGTGGAGCTCCGTTCGTCTCAAGTCAATCGGTCC (dsDNA; 5'-amino-C6 primer)	SPT15 full length assumed	array	double-stranded DNA, one strand shown	TBP alone	–	Kd	2.73 ± 0.17 nM
UCAGACUUU (ssRNA)	U2AF2	sequencing of bound RNA	RNA	motif only	–	Kd	4720 nM
CAATACACTGTTATCAGACACACGTGTCTAGCTACTCGTTCGGTTATCCGGCGGTATGAC (dsDNA)	PHO4	MITOMI	double-stranded DNA, one strand shown	not purified	–	Kd	107 ± 3 nM
GGUGCCUCCCAGUGGUCUUUGUAGACUGCCUGAUGGAGUCACCC (RNA; hairpin with internal loops/bulges)	GATA1 200-319 (Homo sapiens, UniProt P15976)	fluorescence anisotropy	folded RNA	–	–	Kd	14 ± 2 nM
CGGCAGGACGUACAUCCCUCCCGGCUCCCCUCCCGCUGGCCUGCCG (RNA; extended stem-loop)	MECP2	fluorescence polarization	folded RNA	Hill coefficient 1.70	–	Kd	1.44 ± 0.01 nM
AGCGTCACAGACATGAAATTGGTAAGACCAATTGACTTCGGCAAGTGGCTTAAGACAGGAA (dsDNA)	pdhR full length assumed	BLI	double-stranded DNA, one strand shown	–	–	Kd	3.73 nM
GAATTCCTATAAAGTAATGTGGAGCTCCGTTCGTCTCAAGTCAATCGGTCC (dsDNA; 5'-amino-C6 primer)	SPT15 full length assumed	array	double-stranded DNA, one strand shown	TBP alone	–	Kd	1.21 ± 0.07 nM
CGCGGGCACATGGGGACATGGGTACATGGTCACATGGTGACATGGTTACATGTAGCTCCGGCGGTATGAC (dsDNA)	PHO4 full length assumed	MITOMI	double-stranded DNA, one strand shown	not purified	–	Kd	410 ± 30 nM
CUUGAUUUU (ssRNA)	U2AF2	sequencing of bound RNA	RNA	motif only	–	Kd	3780 nM
TGCATAAGATTTGGTCCAGTACTCGCAGGAAATGGTCAAGTCAATCGGTCC (dsDNA; 5'-amino-C6 primer)	SUA7 full length assumed (Saccharomyces cerevisiae, UniProt P29055)	array	double-stranded DNA, one strand shown	TFIIB alone	–	Kd	2.34 ± 0.47 nM
CCATCGCTACC (dsDNA)	HMGB3 full length assumed (Homo sapiens, UniProt O15347)	fluorescence anisotropy	double-stranded DNA, one strand shown	–	–	Kd	4.2 ± 0.5 nM
GUAUAGUGU (ssRNA)	U2AF2	sequencing of bound RNA	RNA	motif only	–	Kd	3520 nM
UUCAGAGGA (ssRNA)	SRSF1 1-248 (Homo sapiens, UniProt Q07955)	fluorescence polarization	RNA	–	–	Kd	38 ± 2 nM
GUUUCUUUU (ssRNA)	U2AF2	sequencing of bound RNA	RNA	motif only	–	Kd	330 nM
DNA 1 ACATTTTTTTCGTTTGTTAGAATAATTCAAGAATCTCAATTCAATCGGTCC / DNA 2 GGACCGATTGACTTGAGATTCTTGAATTATTCTAACAAACGAAAAAAATGT (dsDNA; 5'-amino-C6 primer)	SPT15 full length assumed	array	double-stranded DNA	TBP alone	–	Kd	18.6 ± 2 nM
CAATACACTGTTATCAGAGACACGTGTCGAGCTACTCGTTCGGTTATCCGGCGGTATGAC (dsDNA)	CBF1	MITOMI	double-stranded DNA, one strand shown	not purified	–	Kd	104 ± 5 nM
AAACUUUGU (ssRNA)	U2AF2	sequencing of bound RNA	RNA	motif only	–	Kd	4590 nM
AGATCTCCATCCTTGGGATATGGCTACCAGAAAGTAAAGGGACGATACAAGTCAAGTGAGA (dsDNA)	nac full length assumed (Escherichia coli, UniProt Q47005)	BLI	double-stranded DNA, one strand shown	–	–	Kd	1660 nM
colistin	Enterobacter cloacae	–	clinical isolate RKI 571/13	–	–	MIC	≤ 0.5 µg/mL
AGCGTCACAGACATGAACATGGTCTGACCATTTGTCCTCGGCAAGTGGCTTAAGACAGGAA (dsDNA)	pdhR full length assumed	BLI	double-stranded DNA, one strand shown	–	–	Kd	3.5 nM
CAATACACTGTTATCAGACGCACGTGTCGAGCTACTCGTTCGGTTATCCGGCGGTATGAC (dsDNA)	PHO4	MITOMI	double-stranded DNA, one strand shown	not purified	–	Kd	66 ± 2 nM

For quick reference, copied from above:
Substance	target or system	test	test system	setting	scale	quantity	result
CUUGAUUUU (ssRNA)	U2AF2	sequencing of bound RNA	RNA	motif only	–	Kd	3780 nM
TGCATAAGATTTGGTCCAGTACTCGCAGGAAATGGTCAAGTCAATCGGTCC (dsDNA; 5'-amino-C6 primer)	SUA7 full length assumed (Saccharomyces cerevisiae, UniProt P29055)	array	double-stranded DNA, one strand shown	TFIIB alone	–	Kd	2.34 ± 0.47 nM
CCATCGCTACC (dsDNA)	HMGB3 full length assumed (Homo sapiens, UniProt O15347)	fluorescence anisotropy	double-stranded DNA, one strand shown	–	–	Kd	4.2 ± 0.5 nM
GUAUAGUGU (ssRNA)	U2AF2	sequencing of bound RNA	RNA	motif only	–	Kd	3520 nM
UUCAGAGGA (ssRNA)	SRSF1 1-248 (Homo sapiens, UniProt Q07955)	fluorescence polarization	RNA	–	–	Kd	38 ± 2 nM
